Results collected from several papers.
Every numbered part comes from another study and shows a few of its results, in no order. Positions count from the first letter of the parent shown.
Chain of UniProt Q9UPZ9 (whole entry, looked up): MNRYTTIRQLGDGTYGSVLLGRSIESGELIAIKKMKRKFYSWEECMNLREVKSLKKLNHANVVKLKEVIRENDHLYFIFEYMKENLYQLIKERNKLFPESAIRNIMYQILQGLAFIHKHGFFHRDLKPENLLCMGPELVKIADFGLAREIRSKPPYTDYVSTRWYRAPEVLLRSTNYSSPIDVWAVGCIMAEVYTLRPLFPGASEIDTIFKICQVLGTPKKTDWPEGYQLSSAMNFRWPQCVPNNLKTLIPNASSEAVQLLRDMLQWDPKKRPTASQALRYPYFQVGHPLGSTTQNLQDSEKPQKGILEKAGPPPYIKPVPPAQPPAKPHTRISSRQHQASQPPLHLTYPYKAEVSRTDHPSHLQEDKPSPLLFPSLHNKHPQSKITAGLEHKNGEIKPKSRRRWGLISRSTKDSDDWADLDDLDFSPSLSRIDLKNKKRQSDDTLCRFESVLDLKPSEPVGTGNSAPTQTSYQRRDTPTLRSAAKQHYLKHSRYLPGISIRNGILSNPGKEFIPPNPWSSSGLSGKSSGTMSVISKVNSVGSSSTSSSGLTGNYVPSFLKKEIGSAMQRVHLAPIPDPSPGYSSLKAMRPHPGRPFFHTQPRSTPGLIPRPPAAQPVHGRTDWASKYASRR

Study 1
Cell line: mouse MPNST tumor cells
Technique: high-content immunofluorescence imaging
Measured: nuclear SOX9
Concentration: 10 µM
Time: 12 h
Setting: mean of 2 replicates
Relative to: DMSO control
Direction: higher = more nuclear SOX9
`NC(=O)c1ncn([C@@H]2O[C@H](CO)[C@@H](O)[C@H]2O)c1N` — result for “nuclear SOX9 intensity”: 92 % of DMSO.
`O=C(Nc1cc(-c2ccccc2)nn1-c1ccccc1)c1ccc([N+](=O)[O-])cc1`: “nuclear SOX9 intensity” 128 % of DMSO.
For `CCS(=O)(=O)N(C)[C@H]1c2cc(C#N)ccc2OC(C)(C)[C@@H]1O`, “nuclear SOX9 intensity” read 100 % of DMSO.

Study 2
Target: OGT, full length, His-tagged (human)
Technique: phage display, sequencing
Matrix: in vitro
Concentration: 1 µg OGT
Setting: single substitutions, 15-mer displayed peptide, unchanged parent 19.6
Relative to: input library
Direction: higher = stronger binding
Parent: peptide; TAPFYPPAYQIQVFK
For `TATFYPPAYQIQVFK [P3T]`, the fold enrichment was 21.8 fold.
For `TAPFYPPAYWIQVFK [Q10W]`, the fold enrichment was 2.66 fold.
For `TNPFYPPAYQIQVFK [A2N]`, the fold enrichment was 16 fold.
The fold enrichment of `TIPFYPPAYQIQVFK [A2I]` is reported as 20.4 fold.
`TAPFYPKAYQIQVFK [P7K]` has a fold enrichment of 0.756 fold.
For `TAPFEPPAYQIQVFK [Y5E]`, the fold enrichment was 0.384 fold.
The fold enrichment of `TAPFYPPAYQIQQFK [V13Q]` is reported as 0.876 fold.
The fold enrichment of `TAPFYPPAYQIQVHK [F14H]` is reported as 26.7 fold.

Study 3
Target: RNA binding protein fox-1 homolog 2, RRM domain, GST-SBP tag (RBFOX2, Homo sapiens, UniProt O43251-10, residues 100-194)
Technique: RNA Bind-n-Seq
Molecule type: RNA
Matrix: in vitro
Concentration: 365 nM
Setting: natural RNA segment, single round, ends assumed
Relative to: no-protein control
Direction: higher = stronger binding
All sequences stand within: GGGAGUUCUACAGUCCGACGAUC … UGGAAUUCUCGGGUGCCAA
Residues (chain): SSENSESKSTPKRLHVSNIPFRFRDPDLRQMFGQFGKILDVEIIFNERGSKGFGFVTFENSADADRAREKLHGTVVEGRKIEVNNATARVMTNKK
`UUCCGCAGCCGCCUCCUCUUCCUCCAGAGGCAACAUUCCUUAUUCACCAACUAGUCUCAAAAGAUUGUCUUAAGCCCUGACGAUGGCUGUCCCCAGCCACACCUUGGGGC` — result for “RBNS enrichment (R)”: 0.416.
`AUUUAUAUUUCUCUGUGCAUAUAUAGUAUUUAUCUUUUCUAAUCACUUGUUUCUGUGUAGGAGGUUGAGCUUGUCUUCCAAAAGCCAAGGCGAUGCUACACUGUCCUGUU`: “RBNS enrichment (R)” 0.71.
`CUUUUAGUCUAUGGGAAUUACAGGGUUGCCGCUAAAAUAUUCACUUGUUCAUAUCGUGUCAGAGAUUUCCUCUUCUCUGGAGCUUAGGUGGCUCUUCACAAUCCAUAGGC`: “RBNS enrichment (R)” 0.468.
`UAAUCAAAUUAACUGAUUUUGUUUUCACCCUAAAUACAUACAACCAUUCCUCCACUUUCAUAAAUUUGACAAAUAAUAAGCCUCUCCCAUUAGGAUUUUCUGUUUUAUAG` — result for “RBNS enrichment (R)”: 1.56.
For `AGCCCUAAGUCUCCUUCUUUAUUAUUAGGAAAACAACAACAACAACAAACAAAAAAAUGGCGUCAUGAAUAUGAACAGCAUUGUCAGAUGAAUUAGUUGAAGUGGUUUUU`, “RBNS enrichment (R)” read 0.332.
For `UUUUUCAACUUUGUUUCCUGUUUAACUACAGAUGACUUCUGUUGUAGACUCACAAGUUUAACUGUUGUAUUAUAACAGUAUUACAUGUCAACAGUGUGGUUAUGACCUUU`, “RBNS enrichment (R)” read 0.27.
Under “RBNS enrichment (R)”, `UGCUAUGUUGCAGUUUGUUUGCUUGUUUUUUUCUUCUGAGCUUUGUUUCUAGUACACGAUAUGACGGGACCAAGUACAAGCUGGUGGUGGACAGAGCUGGGUGCCACAGU` is recorded as 0.506.
Under “RBNS enrichment (R)”, `GCUGAAGGCUGGUUGUGGAUCCUUGUUCCUCUCCUGACCCCAUCUGGCUGCUGCCCCGUCUCCCACCCCUGUCCCCGGGGCUCGCUGGCCCUGCACUCCGCCUUAGUCCU` is recorded as 1.73.

Mixed results
The remaining binding of `CO[C@H]1CC[C@H](CNc2ccc(S(=O)(=O)NC(=O)c3ccc(N4CCN(CC5=C(c6ccc(Cl)cc6)CC(C)(C)CC5)CC4)cc3Oc3cnc4[nH]ccc4c3)cc2[N+](=O)[O-])CC1` is reported as 68% (CILK1 (Homo sapiens, UniProt Q9UPZ9); cell-free assay, competition with immobilised ligand; 1 µM).
`CC(C)n1cnc(-c2ccc(F)cc2)c1-c1ncc(C(=O)Nc2ccc(N3CCN(C)CC3)cc2)[nH]1`: “patients with Bronchitis” 0% (human, idiopathic pulmonary fibrosis; 60 mg once daily, trial, treatment-emergent).

Excerpt of the above (study 1):
`NC(=O)c1ncn([C@@H]2O[C@H](CO)[C@@H](O)[C@H]2O)c1N` — result for “nuclear SOX9 intensity”: 92 % of DMSO.
For `CCS(=O)(=O)N(C)[C@H]1c2cc(C#N)ccc2OC(C)(C)[C@@H]1O`, “nuclear SOX9 intensity” read 100 % of DMSO.
`O=C(Nc1cc(-c2ccccc2)nn1-c1ccccc1)c1ccc([N+](=O)[O-])cc1`: “nuclear SOX9 intensity” 128 % of DMSO.
